Measured values collected from several papers.
Compare with care: the assays were run in different laboratories.
PRMT5: Protein arginine N-methyltransferase 5 (PRMT5, Homo sapiens, UniProt O14744)
UniProt O14744, sequence (whole entry, looked up): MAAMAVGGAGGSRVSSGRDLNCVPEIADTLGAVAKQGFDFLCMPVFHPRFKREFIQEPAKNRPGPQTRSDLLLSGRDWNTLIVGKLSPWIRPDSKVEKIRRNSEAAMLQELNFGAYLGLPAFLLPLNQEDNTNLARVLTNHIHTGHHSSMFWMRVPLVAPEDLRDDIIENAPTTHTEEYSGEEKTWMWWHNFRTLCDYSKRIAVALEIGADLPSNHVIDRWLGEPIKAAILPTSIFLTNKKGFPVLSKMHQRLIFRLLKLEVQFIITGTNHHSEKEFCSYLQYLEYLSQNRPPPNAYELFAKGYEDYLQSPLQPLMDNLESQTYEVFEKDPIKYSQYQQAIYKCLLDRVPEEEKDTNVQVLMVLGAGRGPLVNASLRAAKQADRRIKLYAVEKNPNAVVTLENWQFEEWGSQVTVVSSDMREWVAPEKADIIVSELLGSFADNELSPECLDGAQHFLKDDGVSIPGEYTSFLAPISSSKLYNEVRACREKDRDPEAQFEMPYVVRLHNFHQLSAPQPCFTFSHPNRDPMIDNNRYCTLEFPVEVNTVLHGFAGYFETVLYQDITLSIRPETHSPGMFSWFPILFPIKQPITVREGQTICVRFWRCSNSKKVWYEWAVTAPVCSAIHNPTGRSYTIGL
Rps6ka1: Ribosomal protein S6 kinase alpha-1 (Rps6ka1, Rattus norvegicus, UniProt Q63531)
UniProt Q63531, sequence (whole entry, looked up): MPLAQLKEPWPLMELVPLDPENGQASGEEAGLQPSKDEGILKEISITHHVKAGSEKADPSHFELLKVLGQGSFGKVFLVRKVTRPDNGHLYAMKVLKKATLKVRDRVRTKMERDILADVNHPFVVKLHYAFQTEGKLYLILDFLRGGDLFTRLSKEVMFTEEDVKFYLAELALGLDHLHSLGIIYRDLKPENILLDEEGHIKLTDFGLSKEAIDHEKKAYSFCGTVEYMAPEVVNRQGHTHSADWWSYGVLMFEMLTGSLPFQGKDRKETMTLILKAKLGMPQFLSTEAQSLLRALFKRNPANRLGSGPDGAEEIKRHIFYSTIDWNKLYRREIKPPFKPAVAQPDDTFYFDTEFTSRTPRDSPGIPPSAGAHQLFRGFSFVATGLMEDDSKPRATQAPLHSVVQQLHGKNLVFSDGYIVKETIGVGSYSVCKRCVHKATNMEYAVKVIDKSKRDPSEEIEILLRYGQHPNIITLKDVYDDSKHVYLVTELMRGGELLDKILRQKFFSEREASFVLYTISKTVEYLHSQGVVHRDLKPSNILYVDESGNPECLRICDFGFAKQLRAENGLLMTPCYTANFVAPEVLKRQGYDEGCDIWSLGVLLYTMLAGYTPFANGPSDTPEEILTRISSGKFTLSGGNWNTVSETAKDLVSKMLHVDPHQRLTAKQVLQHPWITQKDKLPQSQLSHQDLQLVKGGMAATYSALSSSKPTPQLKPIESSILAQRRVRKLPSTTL
CTSB: Cathepsin B (CTSB, Homo sapiens, UniProt P07858)
UniProt P45983, sequence (whole entry, looked up): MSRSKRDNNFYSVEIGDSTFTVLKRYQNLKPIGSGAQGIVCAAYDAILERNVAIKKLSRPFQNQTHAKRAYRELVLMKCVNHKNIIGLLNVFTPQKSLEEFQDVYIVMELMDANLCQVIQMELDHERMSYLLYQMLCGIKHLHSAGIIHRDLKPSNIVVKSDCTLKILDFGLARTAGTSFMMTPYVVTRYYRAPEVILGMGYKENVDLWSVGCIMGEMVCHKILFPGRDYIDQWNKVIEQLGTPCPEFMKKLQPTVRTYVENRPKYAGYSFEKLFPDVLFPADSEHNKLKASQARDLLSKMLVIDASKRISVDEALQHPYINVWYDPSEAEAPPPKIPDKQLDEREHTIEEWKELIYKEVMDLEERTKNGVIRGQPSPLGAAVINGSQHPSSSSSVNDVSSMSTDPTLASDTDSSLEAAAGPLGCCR
UniProt P78536, sequence (whole entry, looked up): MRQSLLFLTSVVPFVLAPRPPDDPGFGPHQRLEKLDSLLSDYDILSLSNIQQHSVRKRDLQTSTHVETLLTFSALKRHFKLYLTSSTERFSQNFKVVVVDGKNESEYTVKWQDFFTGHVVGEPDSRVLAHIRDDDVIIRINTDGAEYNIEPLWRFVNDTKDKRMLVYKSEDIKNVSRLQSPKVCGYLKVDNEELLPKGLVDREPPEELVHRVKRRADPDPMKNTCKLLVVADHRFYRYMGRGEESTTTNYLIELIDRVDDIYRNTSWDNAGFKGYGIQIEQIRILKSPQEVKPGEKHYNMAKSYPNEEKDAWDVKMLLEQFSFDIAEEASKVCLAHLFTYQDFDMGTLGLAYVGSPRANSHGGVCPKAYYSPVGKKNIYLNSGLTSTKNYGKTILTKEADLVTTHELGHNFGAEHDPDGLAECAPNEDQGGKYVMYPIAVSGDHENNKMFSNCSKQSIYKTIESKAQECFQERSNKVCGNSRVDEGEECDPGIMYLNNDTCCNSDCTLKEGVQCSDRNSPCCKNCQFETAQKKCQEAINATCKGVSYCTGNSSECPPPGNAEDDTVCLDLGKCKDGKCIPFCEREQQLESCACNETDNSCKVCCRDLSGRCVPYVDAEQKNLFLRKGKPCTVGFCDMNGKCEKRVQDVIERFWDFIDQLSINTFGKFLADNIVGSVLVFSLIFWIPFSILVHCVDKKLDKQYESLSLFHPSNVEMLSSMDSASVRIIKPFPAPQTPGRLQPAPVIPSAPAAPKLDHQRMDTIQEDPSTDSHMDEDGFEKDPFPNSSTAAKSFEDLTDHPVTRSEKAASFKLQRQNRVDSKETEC
UniProt Q9HB29, sequence (whole entry, looked up): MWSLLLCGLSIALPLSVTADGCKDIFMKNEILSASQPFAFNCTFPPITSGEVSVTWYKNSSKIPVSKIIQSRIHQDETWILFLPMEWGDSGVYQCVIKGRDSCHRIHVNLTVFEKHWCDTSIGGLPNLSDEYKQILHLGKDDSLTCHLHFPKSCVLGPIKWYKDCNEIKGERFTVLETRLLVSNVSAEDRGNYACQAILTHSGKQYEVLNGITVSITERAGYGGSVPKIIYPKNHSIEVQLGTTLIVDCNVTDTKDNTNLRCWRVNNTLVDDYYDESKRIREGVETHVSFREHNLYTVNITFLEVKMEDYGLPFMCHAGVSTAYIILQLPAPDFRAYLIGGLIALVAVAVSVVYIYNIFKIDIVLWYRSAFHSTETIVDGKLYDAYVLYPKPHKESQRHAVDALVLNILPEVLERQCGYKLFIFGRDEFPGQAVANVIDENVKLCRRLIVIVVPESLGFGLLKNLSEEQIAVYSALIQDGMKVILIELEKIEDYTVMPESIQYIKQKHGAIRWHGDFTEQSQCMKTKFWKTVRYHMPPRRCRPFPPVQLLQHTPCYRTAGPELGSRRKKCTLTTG
UniProt P00519, sequence (whole entry, unmodified, looked up): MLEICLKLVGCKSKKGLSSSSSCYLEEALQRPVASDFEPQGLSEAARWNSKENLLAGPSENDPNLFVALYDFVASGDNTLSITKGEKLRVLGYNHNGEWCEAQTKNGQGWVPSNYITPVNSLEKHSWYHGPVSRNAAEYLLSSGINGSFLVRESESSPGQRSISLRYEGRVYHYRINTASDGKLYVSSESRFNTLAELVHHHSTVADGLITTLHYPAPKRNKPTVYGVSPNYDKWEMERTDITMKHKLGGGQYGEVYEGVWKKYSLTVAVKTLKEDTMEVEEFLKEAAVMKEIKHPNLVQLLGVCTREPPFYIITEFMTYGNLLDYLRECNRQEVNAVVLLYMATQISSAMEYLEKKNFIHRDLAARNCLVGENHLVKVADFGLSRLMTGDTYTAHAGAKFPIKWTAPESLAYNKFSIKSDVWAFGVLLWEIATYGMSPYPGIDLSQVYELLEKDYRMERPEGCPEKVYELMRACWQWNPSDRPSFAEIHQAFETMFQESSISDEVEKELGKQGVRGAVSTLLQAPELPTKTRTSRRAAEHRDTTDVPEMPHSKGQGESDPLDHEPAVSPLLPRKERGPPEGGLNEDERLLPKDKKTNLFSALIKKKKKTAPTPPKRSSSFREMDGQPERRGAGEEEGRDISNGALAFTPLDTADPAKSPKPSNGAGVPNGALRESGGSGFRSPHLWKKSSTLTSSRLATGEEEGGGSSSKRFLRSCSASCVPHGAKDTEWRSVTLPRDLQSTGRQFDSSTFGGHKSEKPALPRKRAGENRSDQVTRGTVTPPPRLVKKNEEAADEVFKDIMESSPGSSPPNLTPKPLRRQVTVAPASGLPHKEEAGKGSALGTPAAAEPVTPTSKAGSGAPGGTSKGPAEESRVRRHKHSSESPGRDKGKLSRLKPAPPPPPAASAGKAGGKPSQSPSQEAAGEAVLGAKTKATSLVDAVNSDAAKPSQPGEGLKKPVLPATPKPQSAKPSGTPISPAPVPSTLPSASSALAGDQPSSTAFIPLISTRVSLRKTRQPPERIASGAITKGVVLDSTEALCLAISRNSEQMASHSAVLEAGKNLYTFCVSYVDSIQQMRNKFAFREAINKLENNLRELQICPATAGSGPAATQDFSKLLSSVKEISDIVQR
UniProt P14778, sequence (whole entry, looked up): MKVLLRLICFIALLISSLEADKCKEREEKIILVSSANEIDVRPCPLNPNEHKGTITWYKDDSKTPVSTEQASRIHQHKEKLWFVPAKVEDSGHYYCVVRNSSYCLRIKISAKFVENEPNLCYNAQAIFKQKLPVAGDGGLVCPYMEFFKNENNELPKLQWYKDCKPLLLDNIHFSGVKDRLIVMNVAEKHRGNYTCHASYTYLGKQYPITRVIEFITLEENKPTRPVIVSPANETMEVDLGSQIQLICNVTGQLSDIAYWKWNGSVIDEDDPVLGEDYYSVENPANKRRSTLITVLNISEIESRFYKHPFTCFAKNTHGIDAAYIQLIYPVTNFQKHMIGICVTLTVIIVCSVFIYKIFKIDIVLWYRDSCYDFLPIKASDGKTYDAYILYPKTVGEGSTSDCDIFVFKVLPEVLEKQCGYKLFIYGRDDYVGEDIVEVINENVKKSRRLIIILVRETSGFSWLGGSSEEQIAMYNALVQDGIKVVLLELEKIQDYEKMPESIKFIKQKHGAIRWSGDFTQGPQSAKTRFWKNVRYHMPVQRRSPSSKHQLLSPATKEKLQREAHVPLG

SMILES	target	test	test system	conditions	scale	remaining activity
CC(C)[C@@H]1NC(=O)[C@H](Cc2ccccc2)NC(=O)CSC[C@@H](C(N)=O)NC(=O)[C@H](CCC(=O)O)NC(=O)[C@H](CO)NC(=O)[C@H](Cc2c[nH]c3cccc(Cl)c23)NC(=O)[C@H](C2CCCCC2)NC(=O)[C@H](C(C)C)NC(=O)[C@H](Cc2ccc(O)cc2)NC(=O)[C@H](CC(=O)O)NC(=O)[C@H](Cc2c[nH]c3ccccc23)NC(=O)[C@H](Cc2ccc(N)nc2)NC(=O)[C@H](Cc2c[nH]c3ccc(Cl)cc23)NC(=O)[C@H](CCC(=O)O)NC1=O	Interleukin-1 receptor-like 2 (IL1RL2, Homo sapiens, UniProt Q9HB29)	reporter gene (SEAP), inhibitor, HEK-Blue IL-36R reporter	HEK-Blue IL-36R cells	0.046 µM, 6 h, together with: IL-36β 0.1 ng/mL		63.2%
C=C1C[C@@]2(C(=O)OC)C=C(C(=O)Nc3cccc(C(=O)Nc4ccc(Nc5nccc(-c6cccnc6)n5)c(C)c4)c3)C(=O)[C@@H]1C2	Mitogen-activated protein kinase 8 (MAPK8, Homo sapiens, UniProt P45983)	kinase activity, inhibitor		0.02032 µM, unit not given, together with: 10 mM glutathione	baseline: no inhibitor	0.823
N=C(N)c1ccc(-c2ccc(-c3ccc(C(=N)N)cc3)[nH]2)cc1	PRMT5	enzyme activity, inhibitor, radiometric		20 µM		67.9%
C[C@](C(=O)NC1CCOCC1)(c1cncnc1)N(C(=O)[C@H](F)Cl)c1ccc(OC(F)(F)Cl)cc1	Disintegrin and metalloproteinase domain-containing protein 17 (ADAM17, Homo sapiens, UniProt P78536)	enzyme activity, inhibitor		10 µM		102%
O=c1c(-c2ccc(Cl)c(CN3CCOCC3)c2)coc2cc(O)ccc12	Rps6ka1	enzyme activity, inhibitor		1 µM		94%
O=C=[N][Ru-4]123([n]4c5ccc(O)cc5c5c6c(c7cc(F)c[n+]1c7c54)C(=O)NC6=O)[S+]1CC[S+]2CC[S+]3CC1 (stereo not drawn)	Rps6ka1	enzyme activity		100 nM, rat enzyme, together with: 10 µM ATP	baseline: untreated	25%
N#Cc1cnc2sc(C(=O)O)cc2c1N1CCc2[nH]nc(C(=O)N[C@@H](CC(=O)NCCOCCN3CCOCC3)c3cccc(Br)c3)c2C1	Interleukin-1 receptor type 1 (IL1R1, Homo sapiens, UniProt P14778)	SEAP reporter gene, antagonist	HEK-Blue IL-36R cells	0.41 µM, 6 h, together with: IL-1β 5 ng/mL	baseline: untreated	110%
COC(=O)[C@@]1(C)C=C(C(=O)Nc2cccc(C(=O)Nc3ccc(Nc4nccc(-c5cccnc5)n4)c(C)c3)c2)C(=O)CC1	Mitogen-activated protein kinase 8, phosphorylated (MAPK8, Homo sapiens, UniProt P45983)	enzyme activity after dialysis, inhibitor		10 µM, 1 days, unit not given	baseline: no inhibitor	0.0928
N=C(NCC1CC1)c1ccc(-c2ccc(-c3ccc(C(=N)NCC4CC4)cc3)o2)cc1	PRMT5	enzyme activity, inhibitor, radiometric		20 µM		58%
Nc1ncc(-c2cc(-c3cnn(CC(F)(F)F)c3)ncc2F)nc1C(=O)NC1CNCC(F)C1 (stereo not drawn)	Testis-specific serine/threonine-protein kinase 6 (TSSK6, Homo sapiens, UniProt Q9BXA6)	enzyme activity		1 µM	baseline: DMSO control	112%
N=C(N)c1ccc(-c2ccc(-c3ccc(C(=N)N)cn3)o2)cc1	PRMT5	enzyme activity, inhibitor, radiometric		20 µM		102%
COC(=O)c1cc2cc3c(cc2oc1=O)N(CC(=O)NC(Cc1cccc(Cl)c1)C(=O)NCC=CS(=O)(=O)c1ccccc1)CCC3 (stereo not drawn)	CTSB	inhibitor		5 µM, 60 min, together with: Z-Arg-Arg-pNA	baseline: uninhibited control	13%
COc1ccc(-c2ccc(-c3ccc(C(=N)N)nc3)o2)cc1	PRMT5	enzyme activity, inhibitor, radiometric		20 µM		66%
C=CC(=O)N1CCCC(n2c(=O)c3ncccc3n(Cc3ccc(Oc4ccccc4)cc3)c2=O)C1 (stereo not drawn)	Tyrosine-protein kinase ABL1 (ABL1, Homo sapiens, UniProt P00519, M351T)	kinase activity		1 µM		82%
N=C(NC1CCCCC1)c1ccc(-c2ccc(-c3ccc(C(=N)NC4CCCCC4)cc3)o2)cc1	PRMT5	enzyme activity, inhibitor, radiometric		20 µM		41.3%
CC(C)(C)OC(=O)NC(Cc1cccc(Cl)c1)C(=O)NCC=CS(=O)(=O)c1ccccc1 (stereo not drawn)	CTSB	inhibitor		5 µM, 60 min, together with: Z-Arg-Arg-pNA	baseline: uninhibited control	26%
N=C(N)c1ccc(-c2coc(-c3ccc(C(=N)N)cc3)c2)cc1	PRMT5	enzyme activity, inhibitor, radiometric		20 µM		70.3%
COc1ccccc1-c1ccncc1C(=O)Nc1nnc(OCc2ccc(Cl)cc2)s1	DNA polymerase theta, helicase domain (POLQ, Homo sapiens, UniProt O75417)	ATPase activity, ADP-Glo		0.004 µM, together with: ATP 400 µM		93%

For quick reference, copied from above:
SMILES	target	test	test system	conditions	scale	remaining activity
CC(C)(C)OC(=O)NC(Cc1cccc(Cl)c1)C(=O)NCC=CS(=O)(=O)c1ccccc1 (stereo not drawn)	CTSB	inhibitor		5 µM, 60 min, together with: Z-Arg-Arg-pNA	baseline: uninhibited control	26%
N=C(NC1CCCCC1)c1ccc(-c2ccc(-c3ccc(C(=N)NC4CCCCC4)cc3)o2)cc1	PRMT5	enzyme activity, inhibitor, radiometric		20 µM		41.3%
Nc1ncc(-c2cc(-c3cnn(CC(F)(F)F)c3)ncc2F)nc1C(=O)NC1CNCC(F)C1 (stereo not drawn)	Testis-specific serine/threonine-protein kinase 6 (TSSK6, Homo sapiens, UniProt Q9BXA6)	enzyme activity		1 µM	baseline: DMSO control	112%
